Experimental data of several laboratories.
Several values in a cell are separate wells, animals, samples, runs or records. Numbers after ± are the reported error.
Tumor necrosis factor receptor superfamily member 9/Nectin-4: Tumor necrosis factor receptor superfamily member 9/Nectin-4 (Homo sapiens, UniProt Q07011+Q96NY8)
Chain of UniProt Q07011 (whole entry, looked up): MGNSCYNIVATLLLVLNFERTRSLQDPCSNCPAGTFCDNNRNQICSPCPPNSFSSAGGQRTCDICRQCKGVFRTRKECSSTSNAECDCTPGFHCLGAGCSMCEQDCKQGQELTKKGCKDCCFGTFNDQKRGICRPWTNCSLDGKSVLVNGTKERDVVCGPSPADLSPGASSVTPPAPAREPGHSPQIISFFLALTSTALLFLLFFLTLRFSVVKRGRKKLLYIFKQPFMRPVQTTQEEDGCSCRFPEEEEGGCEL
NR4A1: Nuclear receptor subfamily 4 group A member 1 (NR4A1, Homo sapiens, UniProt P22736)
Chain of UniProt P22736 (whole entry, looked up): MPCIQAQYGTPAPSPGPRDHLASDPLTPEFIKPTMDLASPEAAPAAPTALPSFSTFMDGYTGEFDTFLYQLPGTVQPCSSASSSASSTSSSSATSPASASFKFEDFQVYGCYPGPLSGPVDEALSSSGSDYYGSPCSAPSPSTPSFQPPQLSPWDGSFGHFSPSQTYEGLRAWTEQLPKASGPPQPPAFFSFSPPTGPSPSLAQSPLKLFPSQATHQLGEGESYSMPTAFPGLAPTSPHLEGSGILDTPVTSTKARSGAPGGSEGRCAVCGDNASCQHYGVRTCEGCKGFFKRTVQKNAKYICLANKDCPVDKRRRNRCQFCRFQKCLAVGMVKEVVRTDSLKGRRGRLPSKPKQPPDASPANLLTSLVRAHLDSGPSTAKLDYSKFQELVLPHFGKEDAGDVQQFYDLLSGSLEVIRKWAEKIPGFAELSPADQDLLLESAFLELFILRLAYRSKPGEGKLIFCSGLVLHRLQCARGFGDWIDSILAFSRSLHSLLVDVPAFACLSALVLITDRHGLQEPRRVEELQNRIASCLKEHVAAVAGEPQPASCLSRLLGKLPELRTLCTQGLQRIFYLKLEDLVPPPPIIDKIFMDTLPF
T1: ssDNA, aptamer; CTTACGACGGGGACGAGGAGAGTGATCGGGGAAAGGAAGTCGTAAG
Chain of UniProt Q9NYV8 (whole entry, unmodified, looked up): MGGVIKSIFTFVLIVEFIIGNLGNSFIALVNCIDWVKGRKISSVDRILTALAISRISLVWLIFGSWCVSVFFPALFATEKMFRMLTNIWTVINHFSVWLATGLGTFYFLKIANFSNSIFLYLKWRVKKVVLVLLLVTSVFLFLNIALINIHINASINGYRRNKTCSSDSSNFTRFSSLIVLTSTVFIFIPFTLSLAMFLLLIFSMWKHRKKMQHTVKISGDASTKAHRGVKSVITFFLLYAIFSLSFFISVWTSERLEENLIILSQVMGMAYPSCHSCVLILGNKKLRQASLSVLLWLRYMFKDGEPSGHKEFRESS
Chain of UniProt Q8NER1 (whole entry, unmodified, looked up): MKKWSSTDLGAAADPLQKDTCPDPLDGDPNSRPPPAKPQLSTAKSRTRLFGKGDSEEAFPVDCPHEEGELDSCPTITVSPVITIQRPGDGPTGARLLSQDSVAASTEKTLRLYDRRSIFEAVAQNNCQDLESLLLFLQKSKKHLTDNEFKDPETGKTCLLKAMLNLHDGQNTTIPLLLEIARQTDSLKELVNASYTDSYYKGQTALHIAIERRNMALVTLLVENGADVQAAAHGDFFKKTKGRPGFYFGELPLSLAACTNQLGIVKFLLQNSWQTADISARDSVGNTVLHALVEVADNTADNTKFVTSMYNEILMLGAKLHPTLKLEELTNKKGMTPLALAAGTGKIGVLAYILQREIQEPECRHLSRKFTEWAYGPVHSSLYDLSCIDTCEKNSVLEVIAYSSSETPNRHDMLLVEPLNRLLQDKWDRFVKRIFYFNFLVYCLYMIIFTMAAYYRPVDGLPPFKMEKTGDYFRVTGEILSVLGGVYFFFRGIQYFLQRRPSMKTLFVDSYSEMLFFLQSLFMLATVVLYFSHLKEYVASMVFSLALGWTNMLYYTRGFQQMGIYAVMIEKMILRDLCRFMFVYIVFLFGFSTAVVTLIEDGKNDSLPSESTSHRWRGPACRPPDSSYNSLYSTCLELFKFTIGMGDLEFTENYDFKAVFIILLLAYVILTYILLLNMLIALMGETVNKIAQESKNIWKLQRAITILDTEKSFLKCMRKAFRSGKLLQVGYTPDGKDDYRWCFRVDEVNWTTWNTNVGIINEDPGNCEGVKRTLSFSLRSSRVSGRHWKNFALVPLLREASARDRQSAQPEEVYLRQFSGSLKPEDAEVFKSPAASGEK
Chain of UniProt O75762 (whole entry, looked up): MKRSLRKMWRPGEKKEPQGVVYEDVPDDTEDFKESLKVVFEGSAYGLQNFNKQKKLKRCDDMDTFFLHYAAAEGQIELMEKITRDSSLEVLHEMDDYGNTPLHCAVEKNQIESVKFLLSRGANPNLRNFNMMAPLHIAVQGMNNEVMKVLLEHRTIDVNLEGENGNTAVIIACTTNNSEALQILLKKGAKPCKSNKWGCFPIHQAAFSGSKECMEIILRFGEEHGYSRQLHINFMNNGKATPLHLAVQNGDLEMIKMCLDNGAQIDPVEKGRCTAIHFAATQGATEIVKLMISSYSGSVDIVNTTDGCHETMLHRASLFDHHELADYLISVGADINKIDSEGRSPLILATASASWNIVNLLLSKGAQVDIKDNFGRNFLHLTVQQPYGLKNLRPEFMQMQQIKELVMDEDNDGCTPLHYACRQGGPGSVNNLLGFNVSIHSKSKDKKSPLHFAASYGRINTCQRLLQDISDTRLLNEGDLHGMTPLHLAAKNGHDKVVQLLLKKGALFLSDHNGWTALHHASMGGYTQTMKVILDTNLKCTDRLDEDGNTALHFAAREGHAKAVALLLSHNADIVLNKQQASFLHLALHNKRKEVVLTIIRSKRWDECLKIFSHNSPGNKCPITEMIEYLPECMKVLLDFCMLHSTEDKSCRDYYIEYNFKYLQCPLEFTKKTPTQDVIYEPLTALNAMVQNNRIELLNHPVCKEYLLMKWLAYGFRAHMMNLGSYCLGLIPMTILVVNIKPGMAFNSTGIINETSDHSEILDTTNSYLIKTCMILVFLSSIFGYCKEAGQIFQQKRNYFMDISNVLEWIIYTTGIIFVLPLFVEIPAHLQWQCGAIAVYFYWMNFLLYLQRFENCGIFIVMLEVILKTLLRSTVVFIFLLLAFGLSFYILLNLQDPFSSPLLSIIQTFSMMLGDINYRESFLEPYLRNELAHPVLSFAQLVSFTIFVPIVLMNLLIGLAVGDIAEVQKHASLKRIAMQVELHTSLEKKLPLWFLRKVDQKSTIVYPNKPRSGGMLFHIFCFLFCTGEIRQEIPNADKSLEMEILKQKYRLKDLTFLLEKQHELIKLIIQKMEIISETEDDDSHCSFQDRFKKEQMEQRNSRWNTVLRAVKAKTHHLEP
Chain of UniProt Q64663 (whole entry, unmodified, looked up): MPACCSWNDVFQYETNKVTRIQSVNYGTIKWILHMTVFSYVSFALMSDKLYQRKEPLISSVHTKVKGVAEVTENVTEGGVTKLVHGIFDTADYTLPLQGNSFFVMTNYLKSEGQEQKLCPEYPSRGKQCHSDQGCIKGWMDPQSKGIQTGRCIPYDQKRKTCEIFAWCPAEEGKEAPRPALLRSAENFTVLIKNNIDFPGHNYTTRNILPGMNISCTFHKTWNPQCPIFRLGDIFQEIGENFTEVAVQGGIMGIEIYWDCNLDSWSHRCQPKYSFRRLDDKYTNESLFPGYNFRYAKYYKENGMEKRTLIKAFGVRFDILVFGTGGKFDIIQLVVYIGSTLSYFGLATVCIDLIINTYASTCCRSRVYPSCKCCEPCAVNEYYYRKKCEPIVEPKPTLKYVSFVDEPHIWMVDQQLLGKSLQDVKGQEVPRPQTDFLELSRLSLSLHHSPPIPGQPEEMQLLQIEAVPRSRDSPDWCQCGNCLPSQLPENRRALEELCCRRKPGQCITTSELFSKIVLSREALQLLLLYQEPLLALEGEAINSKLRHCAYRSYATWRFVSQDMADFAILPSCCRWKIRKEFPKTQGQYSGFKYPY
Chain of UniProt Q16774 (whole entry, unmodified, looked up): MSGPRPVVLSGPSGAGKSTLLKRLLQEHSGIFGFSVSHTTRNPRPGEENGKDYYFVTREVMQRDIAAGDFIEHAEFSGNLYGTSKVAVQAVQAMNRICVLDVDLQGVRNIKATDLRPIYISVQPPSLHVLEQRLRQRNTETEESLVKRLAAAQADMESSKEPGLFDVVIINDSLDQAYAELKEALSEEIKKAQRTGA
Chain of UniProt P51575 (whole entry, unmodified, looked up): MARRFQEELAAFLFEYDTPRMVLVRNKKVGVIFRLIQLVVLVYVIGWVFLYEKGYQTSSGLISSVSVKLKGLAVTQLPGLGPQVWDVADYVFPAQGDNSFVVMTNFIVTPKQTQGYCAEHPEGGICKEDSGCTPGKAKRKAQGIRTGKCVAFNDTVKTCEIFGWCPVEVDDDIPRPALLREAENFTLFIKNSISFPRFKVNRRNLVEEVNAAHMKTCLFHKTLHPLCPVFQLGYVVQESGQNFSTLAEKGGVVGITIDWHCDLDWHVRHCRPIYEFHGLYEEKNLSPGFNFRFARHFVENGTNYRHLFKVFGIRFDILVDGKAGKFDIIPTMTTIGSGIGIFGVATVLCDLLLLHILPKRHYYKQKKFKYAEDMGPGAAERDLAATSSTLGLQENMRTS
Chain of UniProt Q9UBL9 (whole entry, unmodified, looked up): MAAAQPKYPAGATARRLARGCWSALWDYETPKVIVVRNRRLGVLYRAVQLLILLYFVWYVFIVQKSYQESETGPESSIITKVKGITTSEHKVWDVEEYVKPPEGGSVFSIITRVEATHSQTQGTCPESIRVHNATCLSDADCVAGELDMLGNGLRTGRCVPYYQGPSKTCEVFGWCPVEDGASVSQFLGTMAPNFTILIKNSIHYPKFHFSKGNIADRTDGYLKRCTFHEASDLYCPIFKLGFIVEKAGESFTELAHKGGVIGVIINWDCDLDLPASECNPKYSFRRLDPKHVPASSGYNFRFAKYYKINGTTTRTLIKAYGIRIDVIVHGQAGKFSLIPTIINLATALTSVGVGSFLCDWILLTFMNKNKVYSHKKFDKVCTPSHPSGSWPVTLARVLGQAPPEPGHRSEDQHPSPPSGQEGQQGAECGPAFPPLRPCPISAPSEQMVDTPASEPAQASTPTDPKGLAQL

Nc1ncnc2c1ncn2[C@@H]1O[C@H](COP(=O)(O)OP(=O)(O)OP(=O)(O)O)[C@@H](O)[C@H]1O  nucleotide addition rate constant (DNA-directed RNA polymerase subunit beta' / DNA-directed RNA polymerase subunit beta (rpoC/rpoB, Escherichia coli, UniProt P0A8T7+P0A8V2); transcription elongation, rapid chemical quench-flow; fast complex fraction, i+2→i+1, added: NTP 200 µM): 36 ± 2 s⁻¹
CCCC[C@@H]1NC(=O)[C@H](Cc2ccc(O)cc2)NC(=O)[C@@H]2CCCN2C(=O)[C@H](CC(=O)O)NC(=O)[C@H](C)NC(=O)[C@H](Cc2ccccc2)NC(=O)[C@@H]2CSCCC(=O)N3CN(CN(C3)C(=O)CCSC[C@@H](C(=O)N[C@@H](C)C(N)=O)NC1=O)C(=O)CCSC[C@H](NC(C)=O)C(=O)N[C@@H](CC(C)(C)C)C(=O)N1CCC[C@H]1C(=O)N[C@@H](CCC(=O)O)C(=O)N[C@H](CCCCNC(=O)CCc1cn(CCOCCOCCOCCOCCOCCC(=O)NCCCC[C@H]3NC(=O)[C@H](Cc4cccc5ccccc45)NC(=O)[C@@H]4CCCN4C(=O)[C@@H](NC(C)=O)CSCCC(=O)N4CN5CN(C4)C(=O)CCSC[C@H](NC3=O)C(=O)N[C@@H](CCSC)C(=O)N[C@@H](CCCCNC(=N)N)C(=O)N[C@@H](Cc3c[nH]cn3)C(=O)N[C@@H](Cc3c[nH]c4ccccc34)C(=O)N[C@@H](CO)C(=O)N[C@@H]([C@@H](C)O)C(=O)N3CCC[C@H]3C(=O)N3C[C@H](O)C[C@H]3C(=O)N[C@@H](Cc3c[nH]c4ccccc34)C(=O)N[C@H](C(N)=O)CSCCC5=O)nn1)C(=O)N1CCC[C@H]1C(=O)N[C@@H](Cc1ccc(O)cc1)C(=O)N2  Emax (Tumor necrosis factor receptor superfamily member 9/Nectin-4; reporter gene, agonist; HT-1376 coculture with reporter cells; baseline: background): 39 fold
C=CC(=O)N1CCC(COCC(=O)N2CCN(c3nc(-c4cnc(N)nc4C(F)F)nc(N4CCOC[C@@H]4C)n3)CC2)CC1  remaining binding (Non-receptor tyrosine-protein kinase TYK2, JH2 pseudokinase domain (TYK2, Homo sapiens, UniProt P29597); KINOMEscan; 1 µM; baseline: DMSO control): 65%
CN1CCN(c2cc(-c3ccncc3)c(-c3ccc4ccccc4c3)nn2)CC1  activation (GNRHR (Homo sapiens, UniProt P30968); agonist, FLIPR; 12.5 µM): -0.6%
CC(=O)N[C@H](C(=O)N[C@@H](CC(N)=O)C(=O)N[C@@H](CCCCN)C(=O)N[C@@H](C)C(=O)N[C@@H](CC(C)C)C(=O)N1CCC[C@H]1C(=O)N[C@@H](C)C(=O)N[C@@H](CC(C)C)C(=O)N1CCC[C@H]1C(=O)N[C@H](C(=O)N[C@@H](C)C(N)=O)C(C)C)C(C)C  enthalpy change (High osmolarity signaling protein SHO1, SH3 domain (SHO1, Saccharomyces cerevisiae, UniProt P40073); binding, isothermal titration calorimetry; 50 mM sodium phosphate, 100 mM NaCl; concentration not given, pH 7.0, 25 °C): -9.106 ± 0.0717 kcal/mol
N=C(N)NCCC[C@H](N)C(=O)O  Ka (uncharacterized protein (Pelagibacter ubique, UniProt Q4FLC2); isothermal titration calorimetry; Candidatus Pelagibacter ubique; displacement titration, added: octopine competitor 250 µM): 5.7e+10 M⁻¹ and 5.71e+10 M⁻¹
O=S(=O)(O)O  reaction velocity (GUK1 (Homo sapiens, UniProt Q16774); enzyme activity, NADH-coupled; 10 mM, added: ATP 1000 µM): 0.0919 µM/s and 0.0727 µM/s and 0.0722 µM/s
O=C1c2ccccc2CCCN1CCCCN1CCN(c2ccccn2)CC1  inhibition (HTR5A (Homo sapiens, UniProt P47898); radioligand binding; concentration not given, added: [3H]LSD): 58.8%
COCCC(=O)N1CCC(Oc2ccccc2)C1 (centres unmarked)  log fold enrichment (FBXW7 (Homo sapiens, UniProt Q969H0); binding, affinity selection mass spectrometry; baseline: other proteins in batch): -0.0877
COC(=O)c1cn(C)c2ccc(-c3cccnc3)cc12  activation (NR4A1; reporter gene, Gal4 hybrid reporter; 10 µM; baseline: vehicle): 0.59 fold
FC(F)(F)c1cccc(-c2n[nH]c(=S)o2)c1  fluorescence increase (P2X purinoceptor 2 (P2RX2, Homo sapiens, UniProt Q9UBL9); calcium mobilization; MCF7 stably transfected; 100 µM, added: ATP 100 µM): 85.4 ± 2.45%
N#C[C@@]12C[C@@H]1[C@@H](n1cnc3c(N[C@@H](C4CCC4)C4CC4)nc(I)nc31)[C@H](O)[C@@H]2O  selectivity ratio (HTR2B (Homo sapiens, UniProt P41595); antagonist, calcium flux; added: 5-HT; baseline: 5-HT2C over 5-HT2B): 3.6 fold
O=c1nc(SCc2cc(F)cc(C(F)(F)F)c2)nc(SCc2csc3ccc(Cl)cc23)[nH]1  decatenated DNA (TOP2B (Homo sapiens, UniProt Q02880); decatenation; 7.8 µM, replicate 1): 70.3%
CCCCCCCCC(=O)c1cc(O)c(O)c(O)c1  activation (NR4A1; reporter gene, NBRE reporter full-length; 10 µM; baseline: vehicle): 1.08 fold
O=C(C=Cc1ccccc1)Nc1cc(-c2ccnc(N3CCOCC3)c2)ccn1  binding response (NR4A1; SPR; 10.0 µM): 41.5 RU
COc1cc(CNC(=O)CCCC/C=C/C(C)C)ccc1O  Hill coefficient (TRPV1 (Homo sapiens, UniProt Q8NER1, M514Q); agonist, outside-out patch clamp; M514Q mutant): 1.3
Nc1ncnc2c1ncn2[C@@H]1O[C@H](COP(=O)(O)OP(=O)(O)OP(=O)(O)O)[C@@H](O)[C@H]1O  peak current (P2X purinoceptor 2 (P2RX2, Homo sapiens, UniProt Q9UBL9, D148K/E146K/L150K); ion current, agonist, two-electrode voltage clamp; Xenopus oocytes; concentration not given): 3570 nA
O=C(O)c1ccc(Nc2ncc3c(n2)-c2ccc(Cl)cc2C(c2c(F)cccc2F)=NC3)cc1  remaining activity (CaMKI(h); kinase activity; 1 µM): 98%
CC(C)c1ccccc1-c1ccc2c(c1)N(Cc1noc(C3CCC3)n1)C(=O)CO2  ATG14L-Beclin1 interaction (Beclin 1-associated autophagy-related key regulator, with Beclin 1 (ATG14, Homo sapiens, UniProt Q6ZNE5); NanoBRET; 100 µM; baseline: DMSO): active
COc1ccc(Cc2nnc(NS(=O)(=O)c3ccc(OC)cc3)s2)cc1  Kii (Glutathione hydrolase 1 proenzyme, without transmembrane domain (Homo sapiens, UniProt P19440); GSH hydrolysis; 37 °C, no inhibition up to 250 µM, added: GSH 5-20 µM): > 250 µM
[Ca]  potentiation (TRPA1 (Homo sapiens, UniProt O75762); ion current, two-electrode voltage clamp; Xenopus oocytes; 500 µM, -80 mV, added: extracellular Ca2+; baseline: current before Ca2+ addition): 15.9 fold change and 3.97 fold change and 34.3 fold change and 5.72 fold change and 2.82 fold change and 0.167 fold change and 3.55 fold change
CC(=O)N[C@H](C(=O)N1C[C@H](O)C[C@H]1C(=O)NCc1ccc(-c2scnc2C)cc1)C(C)(C)SCCCCCCNC(=O)C[C@@H]1N=C(c2ccc(Cl)cc2)c2c(sc(C)c2C)-n2c(C)nnc21  binding stoichiometry (Bromodomain-containing protein 2, BD1 (BRD2, Homo sapiens, UniProt P25440); ITC; concentration not given, 25 °C, compound in cell, protein in syringe): 0.858 ± 0.004
O=C(NCc1ccc(S(=O)(=O)c2cc(F)cc(F)c2)cc1)c1ccc2nccn2c1  binding inhibition (NAMPT (Homo sapiens, UniProt P43490); inhibitor, competition gel profiling; concentration not given): inhibited
C=CC(=O)N1CCC(C(=O)NCC(=O)N2CCN(c3nc(-c4cnc(N)nc4C(F)F)nc(N4CCOCC4)n3)CC2)CC1  remaining binding (Non-receptor tyrosine-protein kinase TYK2, JH1 domain (TYK2, Homo sapiens, UniProt P29597); KINOMEscan; 1 µM): 92%
CCCC[C@@H]1NC(=O)[C@H](Cc2ccc(O)cc2)NC(=O)[C@@H]2CCCN2C(=O)[C@H](CC(=O)O)NC(=O)[C@H](C)NC(=O)[C@H](Cc2ccccc2)NC(=O)[C@@H]2CSCCC(=O)N3CN(CN(C3)C(=O)CCSC[C@@H](C(=O)N[C@@H](CNC(=O)CCOCCOCCOCCOCCOCCn3cc(CCC(=O)N[C@H]4CSCCC(=O)N5CN6CN(C5)C(=O)CCSC[C@H](NC(=O)[C@@H](CC(=O)O)NC(=O)[C@H](Cc5cccc7ccccc57)NC(=O)[C@@H]5CCCN5C4=O)C(=O)N[C@@H](CCSC)C(=O)N[C@@H](CCCCNC(=N)N)C(=O)N[C@@H](CC(=O)O)C(=O)N[C@@H](Cc4c[nH]c5ccccc45)C(=O)N[C@@H](CO)C(=O)N[C@@H]([C@@H](C)O)C(=O)N4CCC[C@H]4C(=O)N4C[C@H](O)C[C@H]4C(=O)N[C@@H](Cc4c[nH]c5ccccc45)C(=O)N[C@H](C(N)=O)CSCCC6=O)nn3)C(N)=O)NC1=O)C(=O)CCSC[C@H](NC(C)=O)C(=O)N[C@@H](CC(C)(C)C)C(=O)N1CCC[C@H]1C(=O)N[C@@H](CCC(=O)O)C(=O)N[C@H](C)C(=O)N1CCC[C@H]1C(=O)N[C@@H](Cc1ccc(O)cc1)C(=O)N2  Emax (Tumor necrosis factor receptor superfamily member 9/Nectin-4; reporter gene, agonist; HT-1376 coculture with reporter cells; baseline: background): 31 fold
CC(=O)N[C@H]1[C@@H](OC(C)C(N)C(=O)O)O[C@H](CO[C@]2(C(=O)O)C[C@H](O)[C@@H](NC(C)=O)[C@H]([C@H](O)[C@H](O)CO)O2)[C@H](O)[C@@H]1O (some centres unmarked)  ΔH (CLEC10A, carbohydrate recognition domain (Homo sapiens, UniProt Q8IUN9); binding to carbohydrate recognition domain, isothermal titration calorimetry; 293 K): -12 ± 1 kcal/mol
COc1cc(CNC(=O)CCCC/C=C/C(C)C)ccc1O  calcium response (TRPV1 (Homo sapiens, UniProt Q8NER1); channel activation, FLIPR calcium; HEK293T; 0.00914 µM; higher = more activation): 0.918 a.u. and 6.54 a.u. and 6.67 a.u. and 2.78 a.u.
C#CCCOC(=O)[C@]1(C)C=C(C(=O)OC(C)(C)C)C(=O)CC1  fraction bound (MAPK8 (Homo sapiens, UniProt P45983); D-peptide binding, inhibitor, FP peptide displacement; 200 µM; lower is stronger displacement): 0.0288
Cc1cc(Nc2cc(N3CCN(C)CC3)nc(Sc3ccc(NC(=O)C4CC4)cc3)n2)[nH]n1  remaining activity (ROCK2 (Homo sapiens, UniProt O75116); kinase activity, KinaseProfiler; 0.03 µM, species human; baseline: control): 105%
Nc1ncnc2c1ncn2[C@@H]1O[C@H](COP(=O)(O)OP(=O)(O)OP(=O)(O)O)[C@@H](O)[C@H]1O  normalized current (P2X purinoceptor 7 (P2rx7, Rattus norvegicus, UniProt Q64663, I214A/R125A); ion current, agonist, two-electrode voltage clamp; Xenopus laevis oocytes; 900 µM; baseline: highest concentration response): 0.964 and 0.971 and 1
Oc1ccccc1-c1n[nH]cc1-c1ccnc2ccccc12  log2 fold change (Serine/threonine-protein kinase CST20 (CST20, Candida albicans, UniProt P0CY24); kinase binding, MIB/MS competition; Candida albicans lysate; 10 µM; baseline: DMSO, negative = stronger binding): -0.35
O=C(O)c1ccccc1Nc1cccc(C(F)(F)F)c1  ΔBRET (TAS2R14 (Homo sapiens, UniProt Q9NYV8); G-protein dissociation, TRUPATH gustducin BRET; 30 µM, wild-type receptor, unit not given; baseline: vehicle): -0.0246 and -0.0365 and -0.0367 and -0.0465 and -0.0432 and -0.0683 and -0.0347
Nc1ncnc2c1ncn2[C@@H]1O[C@H](COP(=O)(O)CP(=O)(O)OP(=O)(O)O)[C@@H](O)[C@H]1O  specific binding (P2X purinoceptor 1 (P2RX1, Homo sapiens, UniProt P51575, E122A); saturation binding; 79 nM): 560 corrected cpm and 580 corrected cpm and 820 corrected cpm
Nc1nc2c(ncn2[C@@H]2O[C@H](COP(=O)(O)O)[C@@H](O)[C@H]2O)c(=O)[nH]1  ΔH (GUK1 (Homo sapiens, UniProt Q16774, R44A); binding, ITC): -7.72 ± 0.83 kcal/mol
Nc1ncnc2c1ncn2[C@@H]1O[C@H](COP(=O)(O)OP(=O)(O)O)[C@@H](O)[C@H]1O  Kd (T1, ssDNA, aptamer; ITC): 18.9 µM

Some of these lines once more:
N=C(N)NCCC[C@H](N)C(=O)O  Ka (uncharacterized protein (Pelagibacter ubique, UniProt Q4FLC2); isothermal titration calorimetry; Candidatus Pelagibacter ubique; displacement titration, added: octopine competitor 250 µM): 5.7e+10 M⁻¹ and 5.71e+10 M⁻¹
O=S(=O)(O)O  reaction velocity (GUK1 (Homo sapiens, UniProt Q16774); enzyme activity, NADH-coupled; 10 mM, added: ATP 1000 µM): 0.0919 µM/s and 0.0727 µM/s and 0.0722 µM/s
O=C1c2ccccc2CCCN1CCCCN1CCN(c2ccccn2)CC1  inhibition (HTR5A (Homo sapiens, UniProt P47898); radioligand binding; concentration not given, added: [3H]LSD): 58.8%
COCCC(=O)N1CCC(Oc2ccccc2)C1 (centres unmarked)  log fold enrichment (FBXW7 (Homo sapiens, UniProt Q969H0); binding, affinity selection mass spectrometry; baseline: other proteins in batch): -0.0877
COC(=O)c1cn(C)c2ccc(-c3cccnc3)cc12  activation (NR4A1; reporter gene, Gal4 hybrid reporter; 10 µM; baseline: vehicle): 0.59 fold
FC(F)(F)c1cccc(-c2n[nH]c(=S)o2)c1  fluorescence increase (P2X purinoceptor 2 (P2RX2, Homo sapiens, UniProt Q9UBL9); calcium mobilization; MCF7 stably transfected; 100 µM, added: ATP 100 µM): 85.4 ± 2.45%
